Measured values from different studies.
Compare with care: the assays were run in different laboratories.
RIPK4: Receptor-interacting serine/threonine-protein kinase 4 (RIPK4, Homo sapiens, UniProt P57078)

| SMILES | tested on | assay | system | conditions | scale | endpoint | result |
| --- | --- | --- | --- | --- | --- | --- | --- |
| CNC(=O)C1CCN(c2cc(C)c(F)cc2NC(=O)c2ccc(-c3cc(O)ccc3C)c(C)c2)CC1 | RIPK4 | binding, competition with immobilised ligand | – | 1 µM | – | remaining binding | 100% |
| COc1c(Cl)cccc1Nc1c(-c2ccncc2C#C[C@@]2(C)CCCN2C(=O)/C=C/CN(C)C)[nH]c2c1C(=O)NCC2 | RIPK4 | binding, competition with immobilised ligand | – | 3 µM | – | remaining binding | 64% |
| CNC1C[S+]2CC[S+]3CC[S+](C1)[Ru-4]321([N]=C=S)[n]2c3ccc(OC)cc3c3c4c(c5cc(F)c[n+]1c5c32)C(=O)NC4=O (centres unmarked) | RIPK4 | KinomeScan | – | 0.1 µM | relative to: untreated | remaining binding | 82% |
| COc1cc(Nc2nccc(-c3cnn4nc(OC)ccc34)n2)cc(C(F)(F)F)c1 | RIPK4 | binding, competition with immobilised ligand | – | 1 µM | – | remaining binding | 100% |
| C=CC(=O)Nc1cc(-c2nn(C3CCN(CCNC(=O)[C@H](C)CCC45CC6CC(CC(C6)C4)C5)CC3)c3ncnc(N)c23)ccc1Oc1ccccc1 | RIPK4 | inhibitor, KiNativ profiling | biochemical | 2 µM | – | inhibition | -7.6% |
| CC(C)=CC1OC(C)(C)C2C=C3C(=O)C(Cl)=CC(O)C3C3C(O)C4OC4C(=O)C132 (centres unmarked) | RIPK4 | cell-free assay, competition with immobilised ligand | – | 10 µM | – | remaining binding | 70% |
| O=S(=O)(NCC(c1cccnc1)N1CCN(c2ccc(F)cc2)CC1)c1ccccc1 (centres unmarked) | Trypanosoma cruzi | reporter mRNA translation, inhibitor, item: capped polyadenylated Renilla luciferase mRNA | cell-free extract | concentration not given | relative to: control RNA | relative translation | 109% |
| COc1cc(Nc2nc(C)cc(-c3cnn4nc(OC)ccc34)n2)cc(C(F)(F)F)c1 | RIPK4 | binding, competition with immobilised ligand | – | 1 µM | – | remaining binding | 89% |
| Nc1ncc2c(n1)-c1c([nH]c3ccc(C4=CCOCC4)cc13)CCC2 | RIPK4 | binding, competition with immobilised ligand | – | 1 µM | – | remaining binding | 98% |
| C=CC(=O)N1CCc2ccc(-n3c(=O)ccc4cnc5ccc(-c6cnn(C)c6)cc5c43)cc21 | RIPK4 | KINOMEscan | – | 1 µM | relative to: DMSO control | remaining binding | 100% |
| C=CC(=O)N1CCCC(n2c(=O)c3ncccc3n(Cc3ccc(Oc4ccccc4)cc3)c2=O)C1 (centres unmarked) | RIPK4 | cell-free assay, competition with immobilised ligand | – | 1 µM | – | remaining binding | 64% |
| CC(C)=CCCC(C)CN(C)CCc1ccccn1 (centres unmarked) | Trypanosoma cruzi | reporter mRNA translation, inhibitor, item: capped polyadenylated Renilla luciferase mRNA | cell-free extract | concentration not given | relative to: control RNA | relative translation | 104% |
| Nc1ncc(-c2cc(-c3cnn(CC(F)(F)F)c3)ncc2F)nc1C(=O)NC1CNCC(F)C1 (centres unmarked) | RIPK4 | enzyme activity | – | 1 µM | relative to: DMSO control | remaining activity | 85.5% |
| CCN1CCN(Cc2ccc(C(=O)Nc3ccc(C)c(NCc4cnc5[nH]ccc5c4OC)c3)cc2C(F)(F)F)CC1 | RIPK4 | binding, competition with immobilised ligand | – | 1 µM | – | remaining binding | 37% |
| Cc1ccc(-c2c(/C=C(\C#N)C(=O)NC(C)C)n(CCCO)c3ncnc(N)c23)cc1 | RIPK4 | cell-free assay, competition with immobilised ligand | – | 1 µM | – | remaining binding | 100% |
| CCn1cc(C(=O)O)c(=O)c2c(N)c(F)c(NC3CCCCC3)cc21 | RIPK4 | kinase activity | – | 0.1 µM, together with: ATP at Km | – | inhibition | -21.6% |
| Cc1cnc2nc1Nc1cccc(c1)COC/C=C/COCc1cc(ccc1OCCN1CCOCC1)N2 | RIPK4 | binding, competition with immobilised ligand | – | 0.1 µM | – | remaining binding | 74% |

Repeated from above:
| SMILES | tested on | assay | system | conditions | scale | endpoint | result |
| --- | --- | --- | --- | --- | --- | --- | --- |
| Nc1ncc(-c2cc(-c3cnn(CC(F)(F)F)c3)ncc2F)nc1C(=O)NC1CNCC(F)C1 (centres unmarked) | RIPK4 | enzyme activity | – | 1 µM | relative to: DMSO control | remaining activity | 85.5% |
| CCN1CCN(Cc2ccc(C(=O)Nc3ccc(C)c(NCc4cnc5[nH]ccc5c4OC)c3)cc2C(F)(F)F)CC1 | RIPK4 | binding, competition with immobilised ligand | – | 1 µM | – | remaining binding | 37% |
